Assay results pooled from the literature.
A part holds a random share of what one study measured.
UniProt Q5XXA6, sequence (whole entry, unmodified, looked up): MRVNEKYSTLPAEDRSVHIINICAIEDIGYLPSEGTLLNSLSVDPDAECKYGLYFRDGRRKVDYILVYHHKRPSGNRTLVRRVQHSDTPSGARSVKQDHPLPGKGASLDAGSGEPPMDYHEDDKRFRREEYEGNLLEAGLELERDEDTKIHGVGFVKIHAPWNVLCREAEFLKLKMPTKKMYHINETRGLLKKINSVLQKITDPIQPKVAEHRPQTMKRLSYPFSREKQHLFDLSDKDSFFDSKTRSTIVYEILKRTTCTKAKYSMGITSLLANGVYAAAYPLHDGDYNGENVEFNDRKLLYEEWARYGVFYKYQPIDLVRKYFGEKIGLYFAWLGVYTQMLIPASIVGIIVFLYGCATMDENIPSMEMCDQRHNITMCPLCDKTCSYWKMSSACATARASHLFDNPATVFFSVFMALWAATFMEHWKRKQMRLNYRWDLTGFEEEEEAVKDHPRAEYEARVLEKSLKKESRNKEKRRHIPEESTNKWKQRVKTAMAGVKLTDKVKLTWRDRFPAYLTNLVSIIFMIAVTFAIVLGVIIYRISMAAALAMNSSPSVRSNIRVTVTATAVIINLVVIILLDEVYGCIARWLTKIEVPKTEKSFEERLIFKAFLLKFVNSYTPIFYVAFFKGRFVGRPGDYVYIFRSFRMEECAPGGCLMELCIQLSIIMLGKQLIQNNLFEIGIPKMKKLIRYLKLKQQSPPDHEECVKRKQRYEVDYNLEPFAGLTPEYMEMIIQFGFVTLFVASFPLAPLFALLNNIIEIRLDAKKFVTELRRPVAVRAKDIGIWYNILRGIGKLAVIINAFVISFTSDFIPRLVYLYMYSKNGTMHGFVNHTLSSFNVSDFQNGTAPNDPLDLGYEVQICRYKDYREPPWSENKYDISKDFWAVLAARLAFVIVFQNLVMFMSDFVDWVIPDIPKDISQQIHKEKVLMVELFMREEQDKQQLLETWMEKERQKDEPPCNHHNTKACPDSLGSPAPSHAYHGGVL
UniProt P19784, sequence (whole entry, looked up): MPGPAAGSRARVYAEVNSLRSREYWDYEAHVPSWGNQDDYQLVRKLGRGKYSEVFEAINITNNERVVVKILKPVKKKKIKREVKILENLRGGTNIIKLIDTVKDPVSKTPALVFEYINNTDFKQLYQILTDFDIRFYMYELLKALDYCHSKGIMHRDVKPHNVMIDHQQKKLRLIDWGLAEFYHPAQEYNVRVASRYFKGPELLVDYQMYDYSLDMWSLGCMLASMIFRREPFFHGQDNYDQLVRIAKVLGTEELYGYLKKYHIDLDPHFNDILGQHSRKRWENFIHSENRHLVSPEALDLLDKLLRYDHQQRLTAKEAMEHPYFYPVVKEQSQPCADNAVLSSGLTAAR
UniProt Q96SB4, sequence (whole entry, looked up): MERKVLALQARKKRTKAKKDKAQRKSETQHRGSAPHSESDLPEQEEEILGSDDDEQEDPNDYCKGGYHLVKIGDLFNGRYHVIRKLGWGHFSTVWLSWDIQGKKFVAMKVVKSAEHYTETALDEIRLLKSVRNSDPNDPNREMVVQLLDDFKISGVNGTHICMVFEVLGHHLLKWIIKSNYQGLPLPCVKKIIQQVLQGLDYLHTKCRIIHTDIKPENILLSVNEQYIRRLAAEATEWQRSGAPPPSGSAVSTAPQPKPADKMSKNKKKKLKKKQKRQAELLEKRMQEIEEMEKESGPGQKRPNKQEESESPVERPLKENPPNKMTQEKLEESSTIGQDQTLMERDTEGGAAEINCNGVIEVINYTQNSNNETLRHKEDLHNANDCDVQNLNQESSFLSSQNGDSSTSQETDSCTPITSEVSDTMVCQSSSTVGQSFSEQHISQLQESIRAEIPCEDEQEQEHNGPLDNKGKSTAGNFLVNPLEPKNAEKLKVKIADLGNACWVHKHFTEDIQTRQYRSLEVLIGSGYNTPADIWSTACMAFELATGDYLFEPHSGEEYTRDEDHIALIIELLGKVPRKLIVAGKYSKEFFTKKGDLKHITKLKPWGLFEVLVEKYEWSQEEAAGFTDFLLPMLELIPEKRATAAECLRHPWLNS
UniProt P30291, sequence (whole entry, looked up): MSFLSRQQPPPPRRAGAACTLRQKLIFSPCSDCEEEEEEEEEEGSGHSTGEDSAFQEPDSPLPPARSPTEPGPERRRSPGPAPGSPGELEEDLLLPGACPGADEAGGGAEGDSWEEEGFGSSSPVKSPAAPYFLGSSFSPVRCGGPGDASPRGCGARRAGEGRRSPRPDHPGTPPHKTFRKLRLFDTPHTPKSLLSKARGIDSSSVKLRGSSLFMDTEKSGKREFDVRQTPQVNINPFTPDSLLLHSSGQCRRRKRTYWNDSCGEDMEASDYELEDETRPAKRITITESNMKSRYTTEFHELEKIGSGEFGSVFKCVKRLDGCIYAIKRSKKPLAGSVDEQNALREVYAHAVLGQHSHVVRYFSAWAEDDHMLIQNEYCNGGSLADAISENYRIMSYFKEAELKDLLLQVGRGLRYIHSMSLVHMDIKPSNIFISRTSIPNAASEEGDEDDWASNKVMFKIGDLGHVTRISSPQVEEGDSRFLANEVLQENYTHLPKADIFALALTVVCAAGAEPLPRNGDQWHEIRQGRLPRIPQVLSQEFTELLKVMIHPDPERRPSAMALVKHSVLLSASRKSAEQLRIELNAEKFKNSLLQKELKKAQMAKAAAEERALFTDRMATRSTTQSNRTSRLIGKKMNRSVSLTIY
UniProt P29322, sequence (whole entry, looked up): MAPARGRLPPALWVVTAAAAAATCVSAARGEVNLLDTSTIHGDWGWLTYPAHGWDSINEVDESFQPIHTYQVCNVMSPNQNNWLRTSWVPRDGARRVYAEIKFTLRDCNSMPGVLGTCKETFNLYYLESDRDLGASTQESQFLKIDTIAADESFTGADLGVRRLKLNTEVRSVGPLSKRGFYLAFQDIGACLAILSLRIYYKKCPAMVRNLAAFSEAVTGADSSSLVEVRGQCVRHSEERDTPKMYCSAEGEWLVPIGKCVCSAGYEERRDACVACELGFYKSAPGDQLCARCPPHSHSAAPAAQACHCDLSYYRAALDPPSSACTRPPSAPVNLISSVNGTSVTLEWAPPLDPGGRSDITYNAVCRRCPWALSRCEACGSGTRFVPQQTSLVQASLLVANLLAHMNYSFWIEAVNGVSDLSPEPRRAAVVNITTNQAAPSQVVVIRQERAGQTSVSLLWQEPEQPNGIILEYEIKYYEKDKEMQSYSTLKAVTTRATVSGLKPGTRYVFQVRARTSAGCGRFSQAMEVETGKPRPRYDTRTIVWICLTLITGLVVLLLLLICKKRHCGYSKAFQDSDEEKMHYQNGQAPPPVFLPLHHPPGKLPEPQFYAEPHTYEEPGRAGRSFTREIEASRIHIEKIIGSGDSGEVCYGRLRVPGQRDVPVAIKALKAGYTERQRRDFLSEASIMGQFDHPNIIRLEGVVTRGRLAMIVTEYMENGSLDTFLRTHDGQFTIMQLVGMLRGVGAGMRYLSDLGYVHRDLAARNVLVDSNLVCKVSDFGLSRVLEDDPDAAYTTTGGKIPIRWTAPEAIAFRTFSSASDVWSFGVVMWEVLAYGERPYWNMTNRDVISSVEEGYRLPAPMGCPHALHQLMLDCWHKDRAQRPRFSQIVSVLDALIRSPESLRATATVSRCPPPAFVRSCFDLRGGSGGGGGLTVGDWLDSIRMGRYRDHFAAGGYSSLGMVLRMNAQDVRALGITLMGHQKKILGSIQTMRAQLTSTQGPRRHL
UniProt Q6P3R8, sequence (whole entry, looked up): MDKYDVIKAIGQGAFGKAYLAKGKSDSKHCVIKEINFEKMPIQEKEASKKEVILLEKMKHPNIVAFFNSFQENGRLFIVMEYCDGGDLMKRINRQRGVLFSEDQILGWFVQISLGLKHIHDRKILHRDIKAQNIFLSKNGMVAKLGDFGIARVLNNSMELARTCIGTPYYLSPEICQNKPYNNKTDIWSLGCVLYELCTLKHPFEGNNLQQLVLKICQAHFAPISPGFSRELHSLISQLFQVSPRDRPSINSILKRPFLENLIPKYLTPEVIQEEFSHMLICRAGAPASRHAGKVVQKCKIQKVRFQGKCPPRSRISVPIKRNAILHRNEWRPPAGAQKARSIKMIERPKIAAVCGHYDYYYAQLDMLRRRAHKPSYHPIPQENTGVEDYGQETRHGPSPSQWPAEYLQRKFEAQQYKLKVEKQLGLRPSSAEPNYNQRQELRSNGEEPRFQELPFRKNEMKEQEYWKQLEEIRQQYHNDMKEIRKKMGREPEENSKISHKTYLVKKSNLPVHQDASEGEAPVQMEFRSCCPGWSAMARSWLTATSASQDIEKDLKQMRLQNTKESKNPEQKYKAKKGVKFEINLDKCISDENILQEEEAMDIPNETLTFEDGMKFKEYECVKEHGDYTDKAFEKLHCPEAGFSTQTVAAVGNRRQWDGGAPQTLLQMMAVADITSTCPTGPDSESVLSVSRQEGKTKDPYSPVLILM

Series 1 — organism: Sarcocystis neurona; observed: parasite growth; concentration: 10 µM; setting: second screen; baseline: untreated
Under “log2 fold change”, CN(CCO)CC(O)Cn1cnc2c1c(=O)n(C)c(=O)n2C.O=C(O)c1cccnc1 (centres unmarked) is recorded as 0.38.
COC(=O)C1=C(C)NC(C)=C(C(=O)O[C@@H]2CCCN(Cc3ccccc3)C2)[C@@H]1c1cccc([N+](=O)[O-])c1.Cl (racemic): “log2 fold change” -0.13.
Fc1ccc([C@@H]2CCNC[C@H]2COc2ccc3c(c2)OCO3)cc1.O=C(O)/C=C\C(=O)O: “log2 fold change” 0.07.
Under “log2 fold change”, COc1ccc2[n-]c([S+]([O-])Cc3ncc(C)c(OC)c3C)nc2c1.COc1ccc2[n-]c([S+]([O-])Cc3ncc(C)c(OC)c3C)nc2c1.[Mg+2] (centres unmarked) is recorded as -0.76.

Series 2 — SMILES: CCC(=N\O)/C(C)=C/c1ccc(F)cc1; concentration: 1 µM
It gave 100% for remaining binding (SRPK1 (Homo sapiens, UniProt Q96SB4); cell-free assay, competition with immobilised ligand).
The remaining binding was 100% (CDC42BPB (Homo sapiens, UniProt Q9Y5S2); cell-free assay, competition with immobilised ligand).
For STK16 (Homo sapiens, UniProt O75716); cell-free assay, competition with immobilised ligand: remaining binding read 97%.
NEK5 (Homo sapiens, UniProt Q6P3R8); cell-free assay, competition with immobilised ligand — remaining binding: 84%.
It gave 80% for remaining binding (BMP2K (Homo sapiens, UniProt Q9NSY1); cell-free assay, competition with immobilised ligand).
CDK19 (Homo sapiens, UniProt Q9BWU1); competition binding — remaining binding: 79%.
For SBK1 (Homo sapiens, UniProt Q52WX2); cell-free assay, competition with immobilised ligand: remaining binding read 100%.
LIM domain kinase 2 (LIMK2, Homo sapiens, UniProt P53671); cell-free assay, competition with immobilised ligand — remaining binding: 80%.
The remaining binding was 97% (WEE1 (Homo sapiens, UniProt P30291); cell-free assay, competition with immobilised ligand).
The remaining binding was 86% (EPHA7 (Homo sapiens, UniProt Q15375); cell-free assay, competition with immobilised ligand).
Ribosomal protein S6 kinase alpha-2, N-terminal kinase domain (RPS6KA2, Homo sapiens, UniProt Q15349); cell-free assay, competition with immobilised ligand — remaining binding: 85%.
The remaining binding was 88% (AKT2 (Homo sapiens, UniProt P31751); cell-free assay, competition with immobilised ligand).
MELK (Homo sapiens, UniProt Q14680); cell-free assay, competition with immobilised ligand — remaining binding: 96%.
The remaining binding was 100% (EPHA8 (Homo sapiens, UniProt P29322); cell-free assay, competition with immobilised ligand).
It gave 81% for remaining binding (CSNK1D (Homo sapiens, UniProt P48730); cell-free assay, competition with immobilised ligand).
It gave 100% for remaining binding (CSNK2A2 (Homo sapiens, UniProt P19784); cell-free assay, competition with immobilised ligand).

Series 3 — SMILES: C=CCc1ccc(O)c(-c2ccc(O)c(CC=C)c2)c1; observed: chloride current; technique: whole-cell voltage clamp
It gave 6.4 µM for IC50 (Anoctamin-1 (ANO1, Homo sapiens, UniProt Q5XXA6, del476-501/E650A); membrane voltage -80 mV).
Anoctamin-1 (ANO1, Homo sapiens, UniProt Q5XXA6, del476-501/F646A); membrane voltage 20 mV — IC50: 5.76 µM.
It gave 4.66 µM for IC50 (Anoctamin-1 (ANO1, Homo sapiens, UniProt Q5XXA6, D383A/del476-501); membrane voltage 80 mV).
Anoctamin-1 (ANO1, Homo sapiens, UniProt Q5XXA6, del476-501/F803I); inhibitor; 20 mV holding voltage — IC50: 6.56 µM.
The IC50 was 6.37 µM (Anoctamin-1 (ANO1, Homo sapiens, UniProt Q5XXA6, del476-501); membrane voltage 100 mV, added: 300 nM Ca2+).

Series 4 — host: human; medium: microsomes or S9; concentration: 2 µM; time: 0.5 h
For Cc1c(O)ccc2c1oc1c(-c3cccnc3O)c3cnn(C(C)C)c3nc12, the remaining compound was 47.2%.
CC1CCN(Cc2nc(N)nc(Nc3ccc(Cl)cc3)n2)CC1 has a remaining compound of 83.9%.
With CCCN(CCC)C(=O)c1cccc(C(=O)NN(Cc2cc(F)cc(F)c2)C(=O)[C@H](NCC(=O)NCc2ccccc2)C(C)C)c1 the remaining compound was 0.343%.
With CC(O)CC(C)(C)CNC(=O)Nc1cc(CC(C)(C)C)nn1C (centres unmarked) the remaining compound was 31.8%.

Series 5 — mode: antagonist
Target: Beta-1 adrenergic receptor (ADRB1, Homo sapiens, UniProt P08588)
UniProt P08588, sequence (whole entry, looked up): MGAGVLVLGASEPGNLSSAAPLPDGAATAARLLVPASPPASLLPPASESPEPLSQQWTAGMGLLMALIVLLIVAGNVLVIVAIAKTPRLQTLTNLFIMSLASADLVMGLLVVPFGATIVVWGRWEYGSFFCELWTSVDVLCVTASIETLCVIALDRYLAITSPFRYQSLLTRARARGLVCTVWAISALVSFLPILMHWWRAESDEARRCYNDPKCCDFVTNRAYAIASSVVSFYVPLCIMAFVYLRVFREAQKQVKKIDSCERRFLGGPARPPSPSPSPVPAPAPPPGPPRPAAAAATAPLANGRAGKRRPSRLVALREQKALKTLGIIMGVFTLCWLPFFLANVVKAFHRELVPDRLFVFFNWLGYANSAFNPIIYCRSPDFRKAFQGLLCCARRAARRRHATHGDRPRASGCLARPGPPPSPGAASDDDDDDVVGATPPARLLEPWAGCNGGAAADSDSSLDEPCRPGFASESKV
c1cncc(-c2cc(-c3cccc(N4CCOCC4)c3)cn3cncc23)c1 gave an IC50 of ≥ 100 µM.
For CN1CCN(Cc2cccc(OCC(O)CN3CCc4ccccc4C3)c2)CC1 (centres unmarked), the IC50 was ≥ 100 µM.
For Nc1nc2c(ncn2C2OC3COP(=O)(O)OC3C2O)c(=O)[nH]1 (centres unmarked), the IC50 was ≥ 100 µM.
For Cc1cc(=O)oc2cc(NC(=O)[C@H](CCCCN)NC(=O)[C@H](CC3CCCCC3)NC(=O)OCC3c4ccccc4-c4ccccc43)ccc12, the IC50 was ≥ 100 µM.
The IC50 of OC(c1ccccc1)c1nc(Nc2ccc(C(F)(F)F)cc2)n[nH]1 (centres unmarked) is reported as ≥ 100 µM.
For OCc1n[nH]c2c1CN(Cc1cccc(OCC(O)CN3CCOCC3)c1)CC2 (centres unmarked), the IC50 was ≥ 100 µM.

Some of these lines once more (series 2):
For STK16 (Homo sapiens, UniProt O75716); cell-free assay, competition with immobilised ligand: remaining binding read 97%.
LIM domain kinase 2 (LIMK2, Homo sapiens, UniProt P53671); cell-free assay, competition with immobilised ligand — remaining binding: 80%.
CDK19 (Homo sapiens, UniProt Q9BWU1); competition binding — remaining binding: 79%.
NEK5 (Homo sapiens, UniProt Q6P3R8); cell-free assay, competition with immobilised ligand — remaining binding: 84%.
